Measurements from different studies.
Each line is one published result; not all experiments were run side by side. Numbers after ± are the reported error.

`COc1cc2ncnc(Oc3cccc(N[11C](=O)Nc4cc(C(C)(C)C(F)(F)F)on4)c3)c2cc1OC` gave a radioactivity of 3.69 ± 0.35 %ID/g (female Balb/c nude mice, plasma; intravenous, dose not given, 5 min).
`CN(C)C(CNC(=O)Nc1cc(C(F)(F)F)ccc1N1CCOCC1)c1ccncc1` (stereo not drawn) gave a serum ALT of 721 U/L (mouse, serum; intraperitoneal, 360 mg/kg single dose).
`CCCCCCCCCCCCC(=O)O.O=C1CCCC2C3CCCN4CCCC(CN12)C34` (stereo not drawn): “entropic term −TΔS of aggregation” -7.68 kcal/mol (electrical conductivity; water; 298.15 K).
The AUC(0-inf) of `CCCCCCCC(=O)NCCCC[C@H](NC(=O)[C@H](Cc1ccccc1)NC(=O)[C@@H](CCCNC(=N)N)NC(=O)[C@@H](N)Cc1ccc(O)cc1)C(N)=O` is reported as 105000 ng·min/g (mouse, CD-1, male, brain; intravenous, 3 mg/kg).
`Cc1ccc(/C=C/C(=O)O)cc1-c1cc2c(cc1C)C(C)(C)CCC2(C)C` has an HDL level of 50 ± 4 mg/dL (Sprague-Dawley rat, male, plasma; oral, 100 mg/kg, 6 h, sesame oil vehicle).
With `COc1ccc(NC(=O)Cn2c(=O)c3ccccc3n(CC(=O)Nc3cc([125I])c(OC)cc3OC)c2=O)cc1` the tracer uptake was 0.01 %ID/g (rat, brain; intravenous, 30 min).
`C[C@@H](O)[C@H](NC(=O)[C@H](CCCCN)NC(=O)COCCN)C(=O)N[C@@H](CCCNC(=N)N)C(=O)NC(C)(C)C(=O)N[C@@H](CCCNC(=N)N)C(=O)NC(C)(C)C(=O)N[C@H](C(=O)N[C@@H](CO)C(=O)N[C@@H](Cc1c[nH]cn1)C(=O)N[C@@H](Cc1ccc(O)cc1)C(=O)NCC(=O)O)[C@@H](C)O` gave a haematocrit of 35 to 45% (C57BL/6 mouse, blood; intravenous, 50 mg/kg, 10 h).
`O=C(NCCCCn1ccc2ccccc21)Oc1ccccc1` gave a parent remaining of 82 ± 9% (porcine plasma; 20 µM, 30 min).
With `CNC(=O)Oc1cc(C)c([S+](C)[O-])c(C)c1` (stereo not drawn) the percent metabolized was 36.9% (human liver microsomes; 1 µM, 30 min, 0.5 mg/mL protein).
The clearance of `COc1cc(NC(=O)C(=O)c2c(C)n(Cc3ccc(Cl)cc3)c3ccc(C)cc23)ccn1` is reported as 10.6 mL/min/kg (cynomolgus monkey, male, plasma; intravenous, 1 mg/kg).
For `C=C(CC)C(=O)c1ccc(OCC(=O)NCCNC(=O)COc2ccc(C(=O)C(=C)CC)c(Cl)c2Cl)c(Cl)c1Cl`, toxicity read “not toxic” (nude mouse; groin injection, 1.7 µg/g, two weeks, body weight, organ pathology).
`CC[C@H](C)C(=O)N1CCC(NC(=O)Nc2ccc(OC(F)(F)F)c(F)c2)CC1`: “participants with any Serious TEAE” 0% (healthy volunteers, both sexes; oral, 8 mg single dose, fed state).
For `CC(=O)[O-].F[P-](F)(F)(F)(F)F.[Co+2].c1ccc(CN2CCCN3CCN(CCCN(Cc4ccccc4)CC3)CC2)cc1`, the peak separation was 167 mV (cyclic voltammetry, refers to: first Co2+/Co3+ couple; acetonitrile).
For `O=C(CN1CCN(c2cc3c(cc2F)c(=O)c(C(=O)O)cn3C2CC2)CC1)Nc1ccc(Cl)cc1`, the MRT was 9.33 h (mouse, plasma; intravenous, 3.75 mg/kg).
For `CC1=CC=c2ccc3c4c2[N]1[Re](=[C]=O)(=[C]=O)(=[C]=O)([C]#[N+]c1ccc(Cl)cc1)[N]4C(C)=CC=3.O=S(=O)([O-])C(F)(F)F`, the luminescence lifetime was 5.6 µs (PBS; pH 7.4, nitrogen-saturated).
`CN[C@](C)(C[18F])C(=O)O` gave a tracer uptake of 3.3 %ID/g (mouse, bone; 15 min, tumour-bearing).
With `CC[C@H](C)[C@H](NC(=O)[C@H](CC(=O)O)NC(=O)[C@H](CO)NC(=O)[C@H](CCC(N)=O)NC(=O)[C@H](C)NC(=O)[C@H](CC(=O)O)NC(=O)[C@H](CCC(=O)O)NC(=O)[C@H](Cc1c[nH]cn1)NC(=O)[C@H](Cc1ccc(O)cc1)NC(=O)[C@H](C)NC(=O)[C@H](CC(=O)O)NC(=O)[C@H](CCC(=O)O)NC(=O)[C@H](Cc1c[nH]cn1)NC(=O)[C@H](Cc1ccc(O)cc1)NC(=O)[C@H](C)NC(=O)[C@H](CC(=O)O)NC(=O)[C@H](CCC(=O)O)NC(=O)[C@H](Cc1c[nH]cn1)NC(=O)[C@H](Cc1ccc(O)cc1)NC(=O)[C@H](C)NC(=O)[C@H](CC(=O)O)NC(=O)[C@H](CCC(=O)O)NC(=O)[C@H](Cc1c[nH]cn1)NC(=O)[C@H](Cc1ccc(O)cc1)NC(=O)[C@H](C)NC(=O)[C@H](CC(=O)O)NC(=O)[C@H](CCC(=O)O)NC(=O)[C@H](Cc1c[nH]cn1)NC(=O)[C@@H](N)Cc1ccc(O)cc1)C(=O)N[C@H](C(=O)N[C@@H](C)C(=O)N[C@@H](Cc1c[nH]cn1)C(=O)N[C@@H](CC(C)C)C(=O)N[C@@H](CC(C)C)C(=O)O)C(C)C` the haematocrit was 36.7 ± 2.5% (normal mouse; dose not given).
With `C[C@]12CC[C@H](O)CC1CCC1C2[C@H](O)C(=O)[C@]2(C)[C@@H](c3ccc(=O)oc3)CC[C@]12O` (stereo partly drawn) the Km was 78.5 ± 3.6 µM (sulfation, substrate; rabbit liver cytosol; pH 7.4).
`C/C=C/C=C/C/C=C/CCCCCCCc1cccc(O)c1O` has a tissue concentration of 28300 ± 2780 ng/g (female Kunming mice tumour-bearing, lungs; intravenous, 10 mg/kg, 0.083 h).
For `O=C(C[P+]([Au-][Cl])(c1ccccc1)c1ccccc1)[O][Ti+2][O]C(=O)C[P+]([Au-][Cl])(c1ccccc1)c1ccccc1.c1cc[cH-]c1.c1cc[cH-]c1`, the lethal dose was 15 mg/kg/day (C57BL/6 mice, female; subcutaneous, once daily).
The log P of `[Cl-].[Cl-].[Ru+2].c1ccc(-c2ccccn2)nc1.c1ccc(-c2ccccn2)nc1.c1cnc2c(c1)ccc1cccnc12` is reported as -2.82 ± 0.1 (octanol/water; room temperature, chloride salt).

Repeated from above:
`CN(C)C(CNC(=O)Nc1cc(C(F)(F)F)ccc1N1CCOCC1)c1ccncc1` (stereo not drawn) gave a serum ALT of 721 U/L (mouse, serum; intraperitoneal, 360 mg/kg single dose).
`CCCCCCCCCCCCC(=O)O.O=C1CCCC2C3CCCN4CCCC(CN12)C34` (stereo not drawn): “entropic term −TΔS of aggregation” -7.68 kcal/mol (electrical conductivity; water; 298.15 K).
The AUC(0-inf) of `CCCCCCCC(=O)NCCCC[C@H](NC(=O)[C@H](Cc1ccccc1)NC(=O)[C@@H](CCCNC(=N)N)NC(=O)[C@@H](N)Cc1ccc(O)cc1)C(N)=O` is reported as 105000 ng·min/g (mouse, CD-1, male, brain; intravenous, 3 mg/kg).
